Published values of several laboratories.
A part holds a random share of what one study measured. Changes are numbered by the printed parent chain.

Block 1 — technique: RNA Bind-n-Seq; form: RNA; medium: in vitro; tested at: 365 nM; baseline: no-protein control; direction: higher = stronger binding
Target: RNA binding protein fox-1 homolog 2, RRM domain, GST-SBP tag (RBFOX2, Homo sapiens, UniProt O43251-10, residues 100-194)
Setting: natural RNA segment, single round, ends assumed
Constant ends, left off below: GGGAGUUCUACAGUCCGACGAUC … UGGAAUUCUCGGGUGCCAA
Residues (chain): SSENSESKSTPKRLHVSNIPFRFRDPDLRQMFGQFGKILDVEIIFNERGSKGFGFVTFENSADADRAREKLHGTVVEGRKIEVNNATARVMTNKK
Strand | RBNS enrichment (R)
CUAGCCCUGCAGUUCCCACCUUUGAGGUUUUGUUAUGGUAAGUCCCCAAGUCCAGUACCUCUGGUAAAGUGGACUUCUUCCCCCAUCCCUAGAACCAGGGACCUAGAAAC | 0.448
ACACACAUAGAGGACUCUGGAGCCGCAGUGGGACAGCCCUGCCUGCUUGUUCUUCUGAACUUGGGGACCAUGCCUCUUUGGGCUCUGCUUCCAGGAUGGUUUGGGAAGCA | 5.23
CAGGGAAACAGUUCUUGGUCCCCCUUUUUUGGGGUCAGCAUUUUAAAAAUGCAAAGCCUAUAUGUUGAGACAUUGUAUUCCUAAUUAGAUUCUCUGUCCUUUGCACAUAA | 0.493
UCUGCUGAGCACAGGGCUGUUGUCAUUUGUAAACGCAAACACUGUGGAGGUACUUCUCGCCAUCAGCUUCCUUCUUUACAAAACCAUCAUUUCAACAUGAAAAUUAUGUC | 0.344
UUAAAAUGUAUUUUCACAACCCCAGUGGCUGUGGCCAAAUGAGUCCUCAUUGAACACGAGAUGGAGCUAGGAAUGCACGUGGGGCUGUGAACUGGAUGCACUGGCCAUAG | 4.2
AGCAGGGCCAUUCCUACUGAAGGACGGGCCCCCUACGGAGAUGAAAUUUGUUUCCUGGUGAGCACAGAAUCAGAACAAAGAACAAUAUCCCAAAGAGGCCCUGUGUCUAC | 0.356
AUUUAAAGCUAUGAAGUCACCUGGAGAAAAGGAACGUUGCUCUUGGACAGCAAGCAAACCAUUUCUCUCCGUCUGUUCUGUUUUUCUCCUAGUCCCUCUCCUGCCACCUC | 0.643
UGGGGUGGGUGGGGUUCUCUCCUCCCUCCCUCCCUCCUCCUGGGGUGGGAGGGCGCUCCUGUUCCCAUCUCUGUGUUCCCUGGAGGCAGGUAUCACAAAGCAUUUGUGAA | 0.268
UUGUCUGUGAAUGGAACCUCAGUAGGUAAUCCUGAUGAAGCUUAAAACCUUAGGGCAGUGUCUACAUGGGAAACAAGUAUGUGGAAAUUGACAAUCAUUUUUACCAAAUC | 0.305
UAAAUAUUAACCAGGUUAGUGUUGAGUUAGAAAUUACAUUUCUGAGUUCAAGCGUUGUCUUUUUAAGUUUAAAAAACUAUAAAGGGUUGUUUUUACUAGGUAGACUGGCA | 0.624
UUAAAACAGCAAGAUAAUAGUUCUUUGAUACUUUGAGAGGCGCUUUGAUGACCCUCAUCCAAGUCUAUGACACUUUCCUAUGGUUUUCUGUAUUCUAUGUCUGGAUGGAG | 0.322
CAUCUGCCCUCUGAGUUCUUUCUGUGUGAUCUAUUUUUUAAGAAGAGUUUGUAUUAUUUUUUCAUAACGGCUGCAGCAGCAGCUGCUGGGGGUUUAGGGGGAUGGUUUUG | 0.7

Block 2 — technique: protein-binding microarray; form: double-stranded DNA, one strand shown; medium: in vitro; tested at: 940 nM top; setting: 60-bp whole probe; with: salmon DNA 0.4 mg/ml; baseline: random background probes; direction: higher = stronger binding; constant ends, left off below: GCCTAGCAC … GTCTTGATTCGCTTGACGCTGCTG
Target: Interferon regulatory factor 5, full length, phosphomimetic (IRF5, Homo sapiens, UniProt Q13568-2, residues 1-514, S451D/S453D/S456D/S462D)
Strand | fitted relative affinity [z-score]
TTAGAGTCCAGTTTCGATTAGTGCTAG | 8.12
TGTTTCCTCTTTCTTTGCTTGTGCTAG | 2.29
GACGGTATCGGGTATCGCGACGTGCTA | 5.78
GACGGACTGGAACTGGGGACGTGCTAG | -0.477
TTAGGTTTCGACGCTGGGTTAGTGCTA | 7.97
GACGGTTTCGACTTTAGGGACGTGCTA | 7.07
TTAGGTCTCAGTTTCGGTTAGTGCTAG | 8.5
TCATTTTTCTAACCCATACTGTGCTAG | 1.42
TCACCTTTGCTTTCCTGACTGTGCTAG | 1.02
TGAGATCTCAGTATCGATTAGTGCTAG | 4.92
GACGGTTTCGTACTGGGGACGTGCTAG | 4.92
TTGAGTTTTCCTTCATGTGCGTGCTAG | 0.757
TTGCCAATGCTTCTGGTCTTGTGCTAG | -0.345
ATATCTTATCCTATCAGTTTGTGCTAG | 0.102
TTAGATTCCAGTTTCGATTCGTGCTAG | 7.78
GAAGATTTCAGACTGGAGACGTGCTAG | -0.566
GACGGTATCGAGTTTCGGGACGTGCTA | 5.5
TCTCTTTCCTTCTTGATGCAGTGCTAG | 3.46
GGCGGTCTCGGTTTCGGGACGTGCTAG | 6.75
GCACTTTTCCCCCTAGTTGTGTGCTAG | 1.4
GAAGGTATCGGTATCGGGACGTGCTAG | 7.52
ACCACTTTTATTTTCAGTATGTGCTAG | 1.69
TCACTAATGTTTTTTAAACTGTGCTAG | 0.294
ACACTACCTGACTTCAAACTGTGCTAG | 0.782
TTAGGACTGCTTATCCTCTAGTGCTAG | -0.273

Block 3 — technique: DHFR PCA, deep sequencing; medium: yeast; with: (+)-ABA 4.8 µM; baseline: wild-type fitted maximum; direction: higher = stronger binding
Target: ABI1, truncated, D143A, DHFR fusion (Arabidopsis thaliana)
Setting: methotrexate growth selection, single substitutions
Parent: PYL1, truncated, DHFR fusion (Arabidopsis thaliana); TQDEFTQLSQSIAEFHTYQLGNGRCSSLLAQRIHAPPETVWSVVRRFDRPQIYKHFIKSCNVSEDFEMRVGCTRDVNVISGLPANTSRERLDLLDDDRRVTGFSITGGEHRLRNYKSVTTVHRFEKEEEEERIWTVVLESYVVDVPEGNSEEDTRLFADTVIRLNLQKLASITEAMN
Substitution | relative binding score [%]
D159M | -1.16
A30M | 81.4
E130L | 60.3
E152K | 48.5
S11M | 63.8
S63T | 69.9
V142I | 84.5
L82C | 19.9
C72W | 26.7
W41G | -4.98
E152V | 50.3
D97N | 77.1
E67V | 78.2
R113T | 72.4

Block 4 — technique: aptamer microarray, sandwich; form: DNA with 2'F-ANA; medium: in vitro; tested at: 200 nM; with: Cy3 exosite-II aptamer, 400 nM; direction: higher = stronger binding; strand: GGTTGGTGTGGTTGG
Target: Prothrombin, mature alpha-thrombin (F2, Homo sapiens, UniProt P00734)
Setting: whole 15-mer aptamer, many near background
Modification | mean fluorescence intensity
2'F-ANA at 3 5 6 8 9 10 14 15 | 60.2 a.u.
2'F-ANA at 1 3 4 5 7 8 9 11 14 | 56.6 a.u.
2'F-ANA at 3 4 6 7 11 14 15 | 275 a.u.
2'F-ANA at 2 3 9 11 13 14 | 396 a.u.
2'F-ANA at 1 4 6 7 8 10 13 14 | 119 a.u.
2'F-ANA at 1 3 5 7 8 9 11 12 15 | 168 a.u.
2'F-ANA at 1 2 6 9 11 12 13 | 184 a.u.
2'F-ANA at 7 12 | 991 a.u.
2'F-ANA at 3 5 9 10 12 14 15 | 87.5 a.u.
2'F-ANA at 1 4 6 13 14 | 51.3 a.u.
2'F-ANA at 1 3 4 5 6 8 11 12 13 14 | 83.8 a.u.
2'F-ANA at 2 4 7 9 13 15 | 214 a.u.
2'F-ANA at 1 2 3 4 5 6 8 9 10 12 14 15 | 53.1 a.u.
2'F-ANA at 1 2 3 6 9 13 14 | 59.3 a.u.
2'F-ANA at 3 4 5 6 7 9 13 14 | 79.8 a.u.
2'F-ANA at 5 6 8 10 11 13 15 | 48.1 a.u.
2'F-ANA at 2 3 4 5 6 7 8 10 12 | 58.4 a.u.
2'F-ANA at 2 5 6 8 9 10 11 13 | 53.1 a.u.
2'F-ANA at 5 6 9 11 14 | 47.9 a.u.
2'F-ANA at 3 4 5 8 9 13 15 | 65.6 a.u.
2'F-ANA at 5 7 9 10 13 15 | 45.5 a.u.
2'F-ANA at 4 8 9 11 12 13 15 | 295 a.u.

Block 5 — technique: protein binding microarray; form: double-stranded DNA, one strand shown; medium: in vitro; tested at: not given; baseline: not given; direction: higher = stronger binding
Target: Histone acetyltransferase KAT6A, both winged helices, GST fusion (KAT6A, Homo sapiens, UniProt Q92794, residues 1-181)
Setting: 8-mer, flanks averaged, mean of 2 arrays, mostly near background
Target sequence (chain): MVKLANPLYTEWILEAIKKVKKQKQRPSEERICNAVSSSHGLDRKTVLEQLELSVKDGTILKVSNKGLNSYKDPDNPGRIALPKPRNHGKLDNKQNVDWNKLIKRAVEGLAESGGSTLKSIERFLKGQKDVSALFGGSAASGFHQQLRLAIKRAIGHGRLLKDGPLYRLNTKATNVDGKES
Strand | E-score
TACCGTCA | 0.162
AGTCGTAG | -0.216
AGGGTACC | -0.0738
CCACCGAG | -0.137
CCTATATA | -0.0608
AGGAGAGA | -0.143
CCTTCGGA | 0.0739
TCATAGCA | -0.173
ACTAGGAC | -0.117
GGTAGGAC | -0.0396
CACCGATG | -0.0431
CTGAGCAG | -0.0611
ATGCATCA | -0.0694
ACTACCAA | -0.0541
ACTTTGTG | -0.0839
ATCTATGC | -0.0988
ATGATCCA | -0.166

Further values, each from its own experiment — form: peptide; tested at: concentration not given; direction: direction not given
Sequence | tested on | test | test system | setting | quantity | value
GSPLKKLFTSTGA | human cyclin B2 | peptide binding, yeast competitive growth sequencing | Saccharomyces cerevisiae, cyclin B2-Cln2 fusion | combined libraries | binding enrichment score | 0.00241
VLLKRLQDVVSERANH | Saccharomyces cerevisiae | binding, competitive growth deep sequencing | cyclin E1-Cln2 fusion strain | tiling library, Cln2 subtracted | growth enrichment score | -0.0662

For quick reference, copied from above (block 5):
Strand | E-score
AGGGTACC | -0.0738
CCACCGAG | -0.137
CCTATATA | -0.0608
AGGAGAGA | -0.143
CCTTCGGA | 0.0739
TCATAGCA | -0.173
ACTAGGAC | -0.117
GGTAGGAC | -0.0396
CACCGATG | -0.0431
CTGAGCAG | -0.0611
ATGCATCA | -0.0694
ACTACCAA | -0.0541
ACTTTGTG | -0.0839
ATCTATGC | -0.0988
ATGATCCA | -0.166
